Measured values from different studies.
Numbered parts are unrelated; each lists some results of a single study. Changes are numbered by the printed parent chain.

Sample 1 — target: CCNF, cyclin fold, Cln2 fusion (human); method: yeast growth competition, sequencing; medium: yeast; notes: strong parent motif; reference: not given; direction: higher = stronger binding; measurement: normalised enrichment score
Starting sequence: SCAPER docking peptide (human); SNARRSLNFGGST
Variant = R5K; value = 3.94
Variant = S1G; value = 7.91
Variant = G11L; value = 7.26
Variant = F9K; value = 1.03
Variant = G11T; value = 7.54
Variant = A3S; value = 2.56
Variant = L7R; value = 0.889
Variant = T13H; value = 7.56
Variant = S1R; value = 7.88
Variant = R4T; value = 3.16
Variant = F9R; value = 1.25
Variant = A3R; value = 0.286
Variant = R5K F9L; value = 1.07
Variant = F9C; value = 0.0665
Variant = T13F; value = 7.3
Variant = R4S; value = 3.34
Variant = L7W; value = 0.434

Sample 2 — target: FOSL2, bZIP domain (human); method: DHFR protein complementation; medium: yeast; reference: wild-type JUN-FOS pair; direction: higher = stronger binding; measurement: binding fitness
Notes: single substitutions, most at no-binding floor
Starting sequence: JUN, bZIP domain (human); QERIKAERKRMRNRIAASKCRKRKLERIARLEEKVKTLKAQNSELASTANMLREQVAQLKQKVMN; partner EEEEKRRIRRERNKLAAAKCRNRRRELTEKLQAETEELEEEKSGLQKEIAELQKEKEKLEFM
Variant = V56P; value = -1.17 natural log
Variant = E33T; value = -0.0905 natural log
Variant = L45A; value = -0.507 natural log
Variant = M51T; value = 0.0947 natural log
Variant = I28K; value = -0.081 natural log
Variant = A40L; value = -0.0122 natural log
Variant = N42W; value = -0.931 natural log
Variant = Q41K; value = -0.121 natural log
Variant = E44T; value = -0.0956 natural log
Variant = M51N; value = 0.0779 natural log
Variant = L45R; value = -0.935 natural log
Variant = K34S; value = -0.0033 natural log
Variant = L52F; value = -0.66 natural log
Variant = L38Q; value = -0.123 natural log
Variant = L59G; value = -1.03 natural log
Variant = R53H; value = -0.334 natural log
Variant = A40D; value = 0.091 natural log
Variant = S47P; value = -0.934 natural log
Variant = K34R; value = 0.185 natural log
Variant = S47K; value = 0.212 natural log
Variant = L52S; value = -1.3 natural log

Sample 3 — method: protein binding microarray; molecule type: double-stranded DNA, one strand shown; medium: in vitro; tested at: not given; reference: not given; direction: higher = stronger binding; measurement: E-score
Target: Histone acetyltransferase KAT6A, winged helix 1, GST fusion (KAT6A, Homo sapiens, UniProt Q92794, residues 1-85)
Notes: 8-mer, flanks averaged, mean of 2 arrays, mostly near background
Residues (chain): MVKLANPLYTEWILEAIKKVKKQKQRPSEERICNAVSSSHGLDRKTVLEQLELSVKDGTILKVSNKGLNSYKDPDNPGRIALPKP
Sequence = CCACCCTC; value = -0.176
Sequence = ACTTACCA; value = -0.0671
Sequence = AAACGTTG; value = -0.141
Sequence = ATAACTGC; value = -0.171
Sequence = ACCGCATC; value = 0.289
Sequence = AAGTTCGG; value = -0.188
Sequence = GTGCTCGA; value = -0.113
Sequence = AGAGCAGC; value = -0.0154
Sequence = CTGATCGC; value = 0.127
Sequence = AGATAGCC; value = -0.0384
Sequence = TGCAGAAA; value = -0.0758
Sequence = AAGGGCGA; value = 0.0544
Sequence = GAGAGGGA; value = -0.121
Sequence = CTAGACAA; value = -0.206
Sequence = ACAATAGA; value = -0.0723
Sequence = GGAATTAA; value = -0.0591
Sequence = ACTCGTTG; value = -0.235
Sequence = ATGTCCCA; value = -0.125
Sequence = CGCTTGGA; value = 0.026
Sequence = GACCTAAA; value = 0.0117
Sequence = ATGGTAAA; value = -0.204
Sequence = GCGCGCGA; value = 0.45
Sequence = ATGTGAAC; value = -0.0583
Sequence = AGGGACTA; value = -0.0456
Sequence = CACGTGGA; value = -0.213

Sample 4 — method: DHFR PCA, deep sequencing; medium: yeast; together with: (+)-ABA 0.032 µM; reference: wild-type fitted maximum; direction: higher = stronger binding; measurement: relative binding score
Target: ABI1, truncated, D143A, DHFR fusion (Arabidopsis thaliana)
Notes: methotrexate growth selection, single substitutions
Starting sequence: PYL1, truncated, DHFR fusion (Arabidopsis thaliana); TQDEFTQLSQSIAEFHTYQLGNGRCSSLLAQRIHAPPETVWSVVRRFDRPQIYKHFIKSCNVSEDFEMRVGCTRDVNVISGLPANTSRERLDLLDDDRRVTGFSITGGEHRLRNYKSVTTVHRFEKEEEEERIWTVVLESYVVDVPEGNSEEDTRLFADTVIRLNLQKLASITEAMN
Variant = V62Y; value = 5.06%
Variant = D75E; value = 50.6%
Variant = D65V; value = -5.66%
Variant = G71N; value = 0.97%
Variant = N85D; value = 14.5%
Variant = V70N; value = 1.2%
Variant = E147C; value = 6.79%
Variant = G21A; value = 21.7%
Variant = V44F; value = -6.16%
Variant = P37C; value = 6%
Variant = V70M; value = 2.51%
Variant = Y141C; value = 4.17%
Variant = F66C; value = 6.59%
Variant = I52Y; value = 4.87%
Variant = L156W; value = 3.71%
Variant = L112N; value = -4.64%
Variant = A30L; value = 12.6%
Variant = R90N; value = 0.00852%
Variant = L82F; value = 72.9%

A few entries again (sample 1):
Variant = A3S; value = 2.56
Variant = T13F; value = 7.3
Variant = S1R; value = 7.88
Variant = G11T; value = 7.54
Variant = F9K; value = 1.03
Variant = T13H; value = 7.56
Variant = A3R; value = 0.286
Variant = R4T; value = 3.16
Variant = L7W; value = 0.434
